{"data": "Published values of several laboratories", "note": "± gives the spread as reported."}
{"SMILES": "COC(=O)[C@]1(C)C=C(C(=O)Nc2cccc(C(=O)Nc3ccc(Nc4nccc(-c5cccnc5)n4)c(C)c3)c2)C(=O)CC1", "cell line": "SH-SY5Y MKK7 inducible", "assay": "c-Jun Ser63 phosphorylation, inhibitor, HTRF, item: phospho-c-Jun Ser63", "conditions": "6 h, together with: doxycycline", "EC50 [nM]": "65 ± 7"}
{"SMILES": "Cc1nc(C)c(C(=O)Nc2ccc(F)c(-c3nc4ncc(-c5ccccn5)cn4n3)c2)o1", "cell line": "NIH3T3", "assay": "ubiquitylated protein accumulation", "EC50 [nM]": "> 10000"}
{"SMILES": "Cn1nc(I)c2c(N)ncnc21", "cell line": "LC-2/ad, RET-CCDC6 fusion", "assay": "cell viability", "EC50 [nM]": 1000}
{"SMILES": "Cc1ccc(CNC(=O)[C@@H](NC(=O)[C@H](CCc2ccccc2)NC(=O)[C@H](CCc2ccccc2)N(C)C)C(C)C)cc1", "cell line": "HFF", "assay": "cell viability", "conditions": "72 h", "EC50 [nM]": 14000}
{"SMILES": "O=c1c(-c2cnn(-c3ccc(Cl)cc3)c2)c(C(F)(F)F)oc2c(O)c(O)ccc12", "cell line": "subset of tumour cell lines", "assay": "cytotoxicity", "EC50 [nM]": "~2000"}
{"SMILES": "CC[C@H](C)[C@H](NC(=O)[C@H](CC(N)=O)NC(=O)[C@H](CCCCN)NC(=O)[C@H](Cc1ccccc1)NC(=O)[C@H](Cc1ccccc1)NC(=O)[C@H](Cc1c[nH]cn1)NC(=O)[C@@H](NC(=O)[C@@H](NC(=O)[C@@H]1CCCN1C(=O)[C@@H](N)CC(N)=O)C(C)C)C(C)C)C(=O)N[C@H](C(=O)N[C@H](C(=O)N[C@@H](C)C(=O)O)[C@@H](C)O)C(C)C", "cell line": "T cell clone Ob.1H8", "assay": "T cell proliferation, agonist, [3H]thymidine incorporation", "conditions": "72 h, peptide-pulsed APC, together with: EBV-transformed B cells DR2/DQ6 as APC", "EC50 [nM]": "> 50000"}
{"SMILES": "Cc1ccc(CC(=O)c2c(O)c(O)cc3c(O)c(-c4c(C)cc5c(C(=O)Cc6ccc(C)cc6)c(O)c(O)cc5c4O)c(C)cc23)cc1", "cell line": "RS11846", "assay": "apoptosis, annexin V/PI flow cytometry", "conditions": "1-2 d", "EC50 [nM]": 3000}
{"SMILES": "NS(=O)(=O)NCC(F)(F)c1ccccc1F", "cell line": "rat hippocampal neurons", "assay": "neuroprotection, propidium iodide", "conditions": "4 h, together with: hydrogen peroxide 10 µM", "EC50 [nM]": 0.09}
{"SMILES": "[Ru+2].c1ccc(-c2ccc3c(n2)c2ncccc2c2nc4cc5ccccc5cc4nc32)nc1.c1ccc(-c2ccc3c(n2)c2ncccc2c2nc4cc5ccccc5cc4nc32)nc1", "cell line": "M1 murine macrophages", "assay": "cell viability, MTT", "conditions": "1 h, dark", "EC50 [nM]": "> 25000"}
{"SMILES": "FC(F)(F)c1ccnc(-c2cc(C(F)(F)F)ccn2)c1.FC(F)(F)c1ccnc(-c2cc(C(F)(F)F)ccn2)c1.[Cl-].[Cl-].[Ru+2].c1csc(-c2ccc(-c3ccc(-c4nc5c6cccnc6c6ncccc6c5[nH]4)s3)s2)c1", "cell line": "SK-MEL-28", "assay": "cell viability", "conditions": "normoxia, together with: green light 523 nm, 100 J/cm2", "EC50 [nM]": 270}
{"SMILES": "Cc1ccc(CNC(=O)[C@H](CCc2ccccc2)NC(=O)[C@@H](N)CCc2ccccc2)cc1", "cell line": "HFF", "assay": "cell viability", "conditions": "72 h", "EC50 [nM]": "> 50000"}
{"SMILES": "FC(F)(F)c1ccnc(-c2cc(C(F)(F)F)ccn2)c1.FC(F)(F)c1ccnc(-c2cc(C(F)(F)F)ccn2)c1.[Cl-].[Cl-].[Ru+2].c1csc(-c2ccc(-c3ccc(-c4ccc(-c5nc6c7cccnc7c7ncccc7c6[nH]5)s4)s3)s2)c1", "cell line": "SK-MEL-28", "assay": "cell viability", "conditions": "hypoxia 1% O2, together with: green light 523 nm", "EC50 [nM]": 1000}
{"SMILES": "Cc1ccc(CNC(=O)[C@@H](NC(=O)[C@H](CCc2ccccc2)NC(=O)[C@@H](NC(=O)c2cnc(C)cn2)C(C)(C)C)C(C)C)cc1", "cell line": "HFF", "assay": "cell viability", "conditions": "72 h", "EC50 [nM]": 2900}
{"SMILES": "Cc1cc2cc(O)c(O)cc2c(O)c1-c1c(C)cc2cc(O)c(O)cc2c1O", "cell line": "RS11846", "assay": "ATP-lite viability", "conditions": "72 h", "EC50 [nM]": 10000}
{"SMILES": "C=CC(=O)N1CCCCC1C(=O)O (stereo not drawn)", "cell line": "AP1-luc HEK293", "assay": "AP1 reporter gene, activator, luciferase", "conditions": "together with: FBS stimulation", "EC50 [nM]": 110}
{"SMILES": "O=C(O)c1ccc(-c2nc(-c3cccc(C(F)(F)F)c3)cs2)cc1", "cell line": "NB-4", "assay": "cell growth or viability", "conditions": "72 h", "EC50 [nM]": 950}
{"SMILES": "Cc1ccc(CNC(=O)[C@@H](NC(=O)[C@H](CCc2ccccc2)NC(=O)[C@H](CCc2ccccc2)N(C)Cc2cnccn2)C(C)C)cc1", "cell line": "HFF", "assay": "cell viability", "conditions": "72 h", "EC50 [nM]": 61000}
{"SMILES": "Cc1ccc2c(n1)c1nc(C)ccc1c1nc3cc4ccccc4cc3nc21.[Ru+2].c1ccc(-c2cccc(-c3ccccn3)n2)nc1.c1ccncc1", "cell line": "M1 murine macrophages", "assay": "cell viability, MTT", "conditions": "1 h, dark", "EC50 [nM]": "> 25000"}
{"note": "A few entries again:"}
{"SMILES": "NS(=O)(=O)NCC(F)(F)c1ccccc1F", "cell line": "rat hippocampal neurons", "assay": "neuroprotection, propidium iodide", "conditions": "4 h, together with: hydrogen peroxide 10 µM", "EC50 [nM]": 0.09}
{"SMILES": "[Ru+2].c1ccc(-c2ccc3c(n2)c2ncccc2c2nc4cc5ccccc5cc4nc32)nc1.c1ccc(-c2ccc3c(n2)c2ncccc2c2nc4cc5ccccc5cc4nc32)nc1", "cell line": "M1 murine macrophages", "assay": "cell viability, MTT", "conditions": "1 h, dark", "EC50 [nM]": "> 25000"}
